Experimental data collected from several papers.
Each line is one published result; not all experiments were run side by side. Numbers after ± are the reported error.

c1ccc(-c2n[nH]cc2-c2ccnc3ccccc23)nc1
log2 fold change (kinase binding, competitor, MIB/MS competition, refers to: CTK1; Candida albicans cell lysate; 1 µM; reference: DMSO): 0.478

C[C@@H](O)CCOC(=O)C[C@@H](C)O
plasma glucagon (human; oral drink, dose not given, 240 min post dose, median, all participants): 21 pM

OC(CCN1CCCCC1)(c1ccccc1)C1CC2C=CC1C2 (stereo not drawn)
change, Gamma EEG power, in O2-Pz (resting-state EEG; healthy elderly humans; oral, 2 mg, eyes closed, LS mean; reference: baseline): 10.2%

O=C(O)c1cccnc1C(=O)O
z-scored log2 fold change (binding, equilibrium dialysis LC-MS; 5 µM, thermostabilized A2AR-BRIL construct; reference: no-protein control, direction not given): 0.517

CN(C)C(=O)Oc1cccc([N+](C)(C)C)c1
train-of-four ratio (neuromuscular block reversal; rat; dose not given, 7.5 (unit not given), added: cisatracurium; reference: T1 twitch): 57

N#Cc1ccc2c(c1)[C@H]1CCCN(C(=O)c3ccc4[nH]cnc4c3)[C@H]1C2
change from baseline (refers to: LDL; human; 240 mg once daily, day 28, adjusted mean, added: metformin; reference: placebo): -3.12 mg/dL

N#Cc1ccn2c(-c3ccncc3)c(-c3ccc(F)cc3)nc2c1
log2 fold change (kinase binding, competitor, MIB/MS competition, refers to: SAK1; Candida albicans cell lysate; 100 nM; reference: DMSO): -0.14

C[C@H](Oc1ccc(Br)cc1-c1ccon1)C(=O)O
difference from placebo (last response peak; human, tibialis anterior muscle; 200 mg, 30 Hz, single ascending dose): 10.5%

CC(C)NCC(O)c1ccc(O)c(O)c1 (stereo not drawn)
sarcomere length (ventricular cardiomyocytes, C57BL/6 mouse; dose not given, 0.016 s): 1.72 µm

OC[C@H]1O[C@H](O[C@@H]2[C@@H](O)[C@H](O)[C@@H](O)[C@H](O)[C@@H]2O)[C@H](O)[C@@H](O)[C@H]1O
z-scored log2 fold change (binding, equilibrium dialysis LC-MS; 5 µM, thermostabilized A2AR-BRIL construct; reference: no-protein control, direction not given): 0.0582

CC(C)(C)c1ccc(/C=C/C(=O)Nc2ccc3c(c2)OCCO3)cc1
licking duration (nociceptive behaviour; mouse; intraplantar, 10 µg, added: capsaicin 1.6 µg): 3.7 ± 1.7 s

N[C@@H](CS(=O)(=O)O)C(=O)O
z-scored log2 fold change (binding, equilibrium dialysis LC-MS; 5 µM, thermostabilized A2AR-BRIL construct; reference: no-protein control, direction not given): -0.22

NC(=O)c1cnc2[nH]ccc2c1N[C@@H]1[C@@H]2CC3C[C@H]1C[C@@](O)(C3)C2
change from baseline (flow cytometry, refers to: CD8+ memory T cells; Japanese healthy subjects, peripheral blood; oral, 10 mg twice daily, day 7): -0.32%

N[C@@H](Cc1ccc(O)cc1)C(=O)O
z-scored log2 fold change (binding, equilibrium dialysis LC-MS; 5 µM, thermostabilized A2AR-BRIL construct; reference: no-protein control, direction not given): 0.364

CC[C@@H]1[C@H](F)C(=O)N[C@@H]1COc1nccc2cc(C(N)=O)c(OC)cc12
inhibition (ATP-site probe binding, ActivX profiling, refers to: MAP3K2, MAP3K3; THP-1 cell lysate; 0.04 mM, Lys2 site): 1.8%

C[n+]1cccc(C(N)=O)c1
z-scored log2 fold change (binding, equilibrium dialysis LC-MS; 5 µM, thermostabilized A2AR-BRIL construct; reference: no-protein control, direction not given): 0.233

O=C(O)CNC(=O)Cc1ccccc1
sarcomere length (ventricular cardiomyocytes, C57BL/6 mouse; dose not given, 0.856 s): 1.62 µm

CC(=O)N[C@@H](CCCCN)C(=O)O
z-scored log2 fold change (binding, equilibrium dialysis LC-MS; 5 µM, thermostabilized A2AR-BRIL construct; reference: no-protein control, direction not given): 0.14

O=P(O)(O)C(Cl)(Cl)P(=O)(O)O
Iba1-positive area (immunostaining; mouse, sham-operated, hippocampal fissure; dose not given, day 1; reference: total area): 0.46%

Nc1ccn([C@@H]2O[C@H](COP(=O)(O)OP(=O)(O)O)[C@@H](O)[C@H]2O)c(=O)n1
z-scored log2 fold change (binding, equilibrium dialysis LC-MS; 5 µM, thermostabilized A2AR-BRIL construct; reference: no-protein control, direction not given): -2.07

CCN1CCN(Cc2ccc(Nc3ncc(F)c(-c4cc(F)c5nc6n(c5c4)[C@H](C)CCC6)n3)nc2)CC1
objective response rate (human advanced solid tumours; 100 mg, phase Ia monotherapy RECIST 1.1): 0%

Excerpt of the above:
CC(C)(C)c1ccc(/C=C/C(=O)Nc2ccc3c(c2)OCCO3)cc1
licking duration (nociceptive behaviour; mouse; intraplantar, 10 µg, added: capsaicin 1.6 µg): 3.7 ± 1.7 s

N[C@@H](CS(=O)(=O)O)C(=O)O
z-scored log2 fold change (binding, equilibrium dialysis LC-MS; 5 µM, thermostabilized A2AR-BRIL construct; reference: no-protein control, direction not given): -0.22
